Measured values of several laboratories.
Protocols differ between the studies behind these lines. “And” joins repeats or separate records; there may be more than shown. ± marks the error that the study gave.

CC/C(=N\NC(=O)C(C)Nc1ccccc1)c1ccc(O)c(C)c1O (stereo not shown) — TAZ band intensity (SK-OV-3; Western blot; 10 µM, 3 h, 2D culture, unit not given; reference: DMSO): 0.26 ± 0.1
COc1cccc2c1C(=O)c1c(O)c3c(c(O)c1C2=O)C[C@@](O)(C(=O)CO)C[C@@H]3O[C@H]1C[C@H](N)[C@H](O)[C@H](C)O1 — Emax (NCI-H1299; cytotoxicity, WST-1; 72 h, highest tested concentration): 97.8%
CC1(C)Oc2ccc(CC3=C(c4ccc(O)cc4)C(=O)OC3=O)cc2C[C@@H]1O — IL-6 mRNA level (RPTEC; qPCR; 10 µg/mL, 24 h, basal, no LPS; reference: untreated): no effect
CN(C)c1ccc2cc(C(=O)NS(=O)(=O)c3ccccc3-c3ccccc3)oc2c1 — persistence of H3K23ac decline (ZR-75-1; Western blot; 1 µM): ≤ 48 h
O=C(/C=C/c1ccc(CN(CCO)CCc2c[nH]c3ccccc23)cc1)NO — inhibition (BT-16; cell viability, MTT; 10 µM, 72 h): 95.1%
COc1cnc2cccc(N3CCc4c(cc(Cn5ccnc5C)cc4-c4cn(C)nc4C(F)(F)F)C3=O)c2c1 — EC50 (C32; cell growth, inhibitor; 120 h): 26.6 µM
CCN1CCN(Cc2ccc(NC(=O)c3ccc(C)c(-c4ccc5nc(NC(=O)C6CC6)cn5n4)c3)cc2C(F)(F)F)CC1 — phosphorylation (MHHCALL4 cells; Western blot, item: JAK2, STAT5, STAT3; concentration not given): inhibited
Cc1cc(Nc2ncc(Cl)c(Nc3ccccc3S(=O)(=O)C(C)C)n2)c(OC(C)C)cc1C1CCNCC1 — log2 fold change (CLB-GE; phosphoproteomics LC-MS/MS, item: EEF2K phosphorylation; 200 nM, 60 min; reference: untreated): -1.88
COc1cccc2c1C(=O)c1c(O)c3c(c(O)c1C2=O)C[C@@](O)(C(=O)CO)C[C@@H]3O[C@H]1C[C@H](N)[C@H](O)[C@H](C)O1 — selectivity index (HeLa and Vero; MTT; reference: CC50 Vero over EC50 HeLa): 1.75
Cc1[nH]c2ccccc2c1CCNCc1ccc(/C=C/C(=O)NO)cc1 — late apoptotic cells (C13; annexin V/PI flow cytometry; concentration not given, 48 h; reference: control subtracted): 2.6 ± 0.5%
CSc1cc(Oc2ccnc3[nH]c(=O)cnc23)ccc1NC(=O)Nc1cc(C(C)(C)C)nn1-c1ccccc1 — phospho ratio (patient-derived cell line clone B; RPPA, item: phosphorylated IRS-1; human; 1 µM, 4 h; reference: DMSO): 0.92
Fc1ccc(-c2ccnc3[nH]c(C(F)(F)F)nc23)cc1 — Emax (L6 myoblasts; oxygen consumption rate, Seahorse XF; reference: BAM15 maximal respiration): 6 to 22%
CCOc1cc(-c2nncn2C)ccc1Nc1ncc2cc(C)nc(NCC(C)(C)C)c2n1 — GI50 (CAL-51; cell growth; 72 h): 0.087 µM
CC(C)NCC(O)c1ccc(O)c(O)c1 (stereo not shown) — sarcomere length (mouse ventricular cardiomyocytes; dose not given, 0.031 s): 1.8 µm
Clc1nc(NCc2ccco2)c2[nH]cnc2n1 — ΔPSI (iPSC-derived cardiomyocytes; RNA-seq, item: AFMID chr17 exon ending 78204900; unit not given; reference: DMSO minus compound): 0.228
CCc1cnc(N2CCC(c3nc(COc4ccc(-n5cnnn5)cc4)cs3)CC2)nc1 — normalized enrichment score (HEK-293T; RNA-seq GSEA, item: HALLMARK_UNFOLDED_PROTEIN_RESPONSE; concentration not given; direction not given): 2.04
COc1cccc2c1c(O)c(C(=O)N(C)c1ccc(C(F)(F)F)cc1)c(=O)n2C — mRNA level (mouse bone marrow-derived macrophages; qPCR, item: Cd206; concentration not given, together with: IL-4): decreased
COc1ccc(-n2nc(C(C)=O)s/c2=N\N=C(/C)c2ccc(NC(=O)c3ccccc3)cc2)cc1 — viability (MCF7; 5 µM): 2.5%
CN(C)c1ccc(C(=O)NCCCCCCC(=O)NO)cc1 — inhibition (BT-16; cell viability, MTT; 10 µM, 72 h): 90.4%
Cc1nc(NC(=O)N2CCC[C@H]2C(N)=O)sc1-c1ccnc(C(C)(C)C(F)(F)F)c1 — Hill coefficient GR curve (BFTC-909; cell growth, CellTiter-Glo; 120 h): 0.742
CCS(=O)(=O)c1cccc(-c2cc(C(=O)NC3CCN(C)CC3)c(C)c3[nH]c4ncc(C)cc4c23)c1 — inhibition (BT-16; cell viability, MTT; 10 µM, 72 h): 94.5%
CCn1cc(-c2cc(Cn3ccoc3=N)cc3c2CCN([C@@H](C)c2cc(OC)ccn2)C3=O)c(C(F)(F)F)n1 — EC50 (C32; cell growth, inhibitor; 120 h): 2.06 µM
O=C(/C=C/C=C/C=C/C1CCCCC1)NC1=C[C@@](O)(/C=C/C=C/C=C/C(=O)NC2=C(O)CCC2=O)[C@@H]2O[C@@H]2C1=O — GI50 (NCI-H441; cell growth, CellTiter-Glo; 78 h): 26.3 µM
C#Cc1cccc(Nc2ncnc3cc(OC)c(OCCCCCCC(=O)NO)cc23)c1 — inhibition (BT-16; cell viability, MTT; 10 µM, 72 h): 90.1%
Nc1cccc2c1C(=O)N(C1CCC(=O)NC1=O)C2=O (stereo not shown) — surface marker level (RPMI-8226; flow cytometry, item: CD267; concentration not given; reference: comparator compound alone): 215%
CCn1cc(-c2cc(Cn3ccnc3)cc3c2CCN([C@H](c2cc(OC)ccn2)C2CC2)C3=O)c(C(F)(F)F)n1 — EC50 (SNU668; cell growth, inhibitor; 120 h): 8 µM
Nc1ncnc2c1ncn2[C@@H]1O[C@H](CO)[C@@H](O)[C@H]1O — viability (unstimulated human T cells; 100 nM, 72 h; higher = more viable cells): 82.1 a.u. and 74.6 a.u. and 83.5 a.u.
C=CC1=C(C)c2cc3[n-]c(cc4nc(cc5[n-]c(cc1n2)c(C)c5C=C)C(C)=C4CCC(=O)O)c(CCC(=O)O)c3C.[Zn+2] — fold change (SH-SY5Y; RNA-seq, item: RFTN1 mRNA; 5 µM, 5 h; reference: untreated cells): 1.57
CCCCCCCCCCCCCCCC[N+](C)(C)C — inhibition (BT-16; cell viability, MTT; 10 µM, 72 h): 82%
CC/C(=N\NC(=O)NCc1cccc(O)c1)c1ccc(O)c(C)c1O — protein level (SK-OV-3; Western blot, item: phospho-YAP; 10 µM, 6 h, 2D culture, unit not given; reference: total YAP): 0.27 ± 0.03
COc1cc2ncnc(Nc3ccc(Oc4ccccc4)c(C)c3C)c2cc1OC — viability (MeWo (NF1 mutant); resazurin; 0.1 µM, 72 h, together with: trametinib; reference: DMSO): 90%
c1ccc2c(CCNc3ccc(Nc4ccncc4)cc3)c[nH]c2c1 — inhibition (BT-16; cell viability, MTT; 10 µM, 72 h): 95.5%
Cc1cccc(-c2[nH]c(CNc3ccccc3F)nc2-c2ccc3ncnn3c2)n1 — relative viability (bone marrow CD138+ myeloma cells; XTT; human; 1 µM; reference: untreated): 0.171
C=Cc1c2[n-]c(c1C)/C=c1\[n-]/c(c(C)c1C=C)=C\c1[n-]c(c(CCC(=O)O)c1C)/C=c1\[n-]c(c(C)c1CCC(=O)O)=C2.[Sn+4] — fold change (SH-SY5Y; RNA-seq, item: MALL mRNA; 5 µM, 5 h; reference: untreated cells): 65.1
O=C(O)C[C@H](O)C[C@H](O)/C=C/c1c(C2CC2)nc2ccccc2c1-c1ccc(F)cc1 — inhibition (BT-16; cell viability, MTT; 10 µM, 72 h): 93.6%
Cn1cc(-c2ccc(-c3cncc(Cl)c3N3CCC4(CCNC4=O)CC3)cc2)cn1 — log2 fold change (COLO 205; gene expression, microarray, item: HIST1H4D mRNA; concentration not given, 2 h; reference: untreated cells): -2.53
O=C(/C=C\n1cnc(-c2cc(C(F)(F)F)cc(C(F)(F)F)c2)n1)NNc1cnccn1 — inhibition (BT-16; cell viability, MTT; 10 µM, 72 h): 88.5%
COc1cc([C@@H]2c3cc4c(cc3[C@@H](O[C@@H]3O[C@@H]5CO[C@@H](C)O[C@H]5[C@H](O)[C@H]3O)[C@H]3COC(=O)[C@H]23)OCO4)cc(OC)c1O — S phase cells (HepG2 spheroids; flow cytometry; 1.7 µM, 96 h): 6.01 ± 4.65%
COc1cc(-c2cnn(C)c2C)ccc1Nc1ncc2ccnc(NCC(C)(C)C)c2n1 — GI50 (CAL-51; cell growth; 72 h): 0.27 µM
Cc1nn(-c2nc3c(F)cc(F)cc3s2)c(O)c1C(c1ccc(C(F)(F)F)cc1)c1c(C)nn(-c2nc3c(F)cc(F)cc3s2)c1O — inhibition (RAW-ISG; IFN luciferase reporter; 80 µM, together with: HT-DNA): 100%
CCn1c(=O)c(-c2cc[nH]n2)cc2c(C)nc(N)nc21 — ISG expression (RD; item: ISG20, IFIT1, OAS2, OAS3, MX1; concentration not given, 22 h, 37 °C): increased
O=c1c2ccccc2[se]n1-c1ccccc1 — AC50 (differentiated LUHMES MT1G::HiBiT-G2 neurons; cell viability; 3D neurospheres; 24 h): 1.8 µM
NC1(C(=O)N[C@@H](CCO)c2ccc(Cl)cc2)CCN(c2ncnc3[nH]ccc23)CC1 — G2/M phase cells (PC-3; flow cytometry; concentration not given, 48 h): 20.8%
